{"data": "Measurements of several laboratories", "organism": "Enterococcus faecalis", "note": "Lines come from different studies, so protocols differ."}
{"Molecule": "O=C(COc1ccc(-c2nc3ccccc3[nH]2)cc1)N1CCOCC1", "assay": "microbial growth, broth dilution", "system": "ATCC29212", "MIC [µg/mL]": "> 256"}
{"Molecule": "vancomycin", "assay": "broth microdilution", "system": "BM4166, VanA", "MIC [µg/mL]": 2000}
{"Molecule": "chlorobiphenyl vancomycin", "system": "BM4166, VanA", "conditions": "16 h, 37 °C", "MIC [µg/mL]": 2.5}
{"Molecule": "Clc1ccc2nc(-c3ccc(OCc4cn(CCN5CCOCC5)nn4)cc3)[nH]c2c1", "assay": "microbial growth, broth dilution", "system": "ATCC29212", "MIC [µg/mL]": "> 256"}
{"Molecule": "COc1cc2cc(-c3cccc(-c4ccc(C(C)(C)C)cc4)c3)[n+](C)c(C)c2cc1OC.[I-]", "assay": "broth microdilution", "system": "ATCC 51575 VRE, brain heart infusion broth", "conditions": "24 h, 37 °C", "MIC [µg/mL]": "4 to 8"}
{"Molecule": "CCC[C@H]1c2ccccc2C=NN1C(=O)/C=C/c1cc(Cc2cnc(N)nc2N)cc(OC)c1OC (racemic)", "system": "ATCC 29212", "conditions": "added: folinic acid 0.1 µg/mL", "MIC [µg/mL]": "0.06 to 0.125"}
{"Molecule": "teicoplanin aglycone", "system": "ATCC 47077 glycopeptide sensitive", "conditions": "18 h, 37 °C", "MIC [µg/mL]": 8}
{"Molecule": "Cc1cc(C)n(C(N)=S)n1.Cc1ccc(C(C)C)cc1.[Cl][Ru][Cl]", "assay": "broth microdilution", "system": "ATCC 29212", "conditions": "37 °C", "MIC [µg/mL]": 62.5}
{"Molecule": "O=C(COc1ccc(-c2nc3ccc(Cl)cc3[nH]2)cc1F)N1CCOCC1", "assay": "microbial growth, broth dilution", "system": "ATCC29212", "MIC [µg/mL]": "> 256"}
{"Molecule": "Cc1ccc(C(C)C)cc1.Cc1ccc(C(C)C)cc1.[Cl][Ru][Cl].[Cl][Ru][Cl]", "assay": "broth microdilution", "system": "ATCC 29212", "conditions": "37 °C", "MIC [µg/mL]": "> 1000"}
{"Molecule": "CCN(CC)CCOc1ccc(-c2nc3ccc(Cl)cc3[nH]2)cc1F", "assay": "microbial growth, broth dilution", "system": "ATCC29212", "MIC [µg/mL]": 64}
{"Molecule": "COc1cc(-c2cc3cc(OC)c(OC)c(OC)c3c(C)[n+]2C)cc(-c2ccc(-c3ccccc3)cc2)c1OC.[I-]", "assay": "broth microdilution", "system": "ATCC 51575 VRE, brain heart infusion broth", "conditions": "24 h, 37 °C", "MIC [µg/mL]": "4 to 8"}
{"note": "Some of these lines once more:"}
{"Molecule": "O=C(COc1ccc(-c2nc3ccc(Cl)cc3[nH]2)cc1F)N1CCOCC1", "assay": "microbial growth, broth dilution", "system": "ATCC29212", "MIC [µg/mL]": "> 256"}
